Experimental data gathered from unrelated publications.
Numbered parts are unrelated; each lists some results of a single study.
UniProt Q9UBF8, sequence (whole entry, looked up): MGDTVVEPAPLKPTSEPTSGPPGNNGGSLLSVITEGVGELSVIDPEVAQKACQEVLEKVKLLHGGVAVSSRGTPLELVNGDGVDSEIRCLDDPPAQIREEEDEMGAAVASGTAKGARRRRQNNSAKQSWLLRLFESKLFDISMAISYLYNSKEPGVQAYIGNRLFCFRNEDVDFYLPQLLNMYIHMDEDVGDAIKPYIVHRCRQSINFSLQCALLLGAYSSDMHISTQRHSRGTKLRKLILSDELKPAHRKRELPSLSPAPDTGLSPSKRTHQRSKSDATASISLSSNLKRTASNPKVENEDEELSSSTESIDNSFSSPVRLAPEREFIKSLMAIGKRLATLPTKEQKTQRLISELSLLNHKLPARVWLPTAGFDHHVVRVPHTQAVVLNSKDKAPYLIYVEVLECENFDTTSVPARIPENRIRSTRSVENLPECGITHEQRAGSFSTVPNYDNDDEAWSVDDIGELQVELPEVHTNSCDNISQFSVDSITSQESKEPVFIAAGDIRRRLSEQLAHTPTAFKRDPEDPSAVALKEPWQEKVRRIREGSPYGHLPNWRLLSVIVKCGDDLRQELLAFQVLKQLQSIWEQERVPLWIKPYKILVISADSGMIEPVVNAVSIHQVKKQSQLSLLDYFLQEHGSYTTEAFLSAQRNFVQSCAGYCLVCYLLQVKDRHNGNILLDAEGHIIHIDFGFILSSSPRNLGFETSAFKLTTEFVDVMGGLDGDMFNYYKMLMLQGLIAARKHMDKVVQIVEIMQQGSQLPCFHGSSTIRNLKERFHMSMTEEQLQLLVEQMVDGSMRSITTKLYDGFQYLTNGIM
UniProt P42338, sequence (whole entry, looked up): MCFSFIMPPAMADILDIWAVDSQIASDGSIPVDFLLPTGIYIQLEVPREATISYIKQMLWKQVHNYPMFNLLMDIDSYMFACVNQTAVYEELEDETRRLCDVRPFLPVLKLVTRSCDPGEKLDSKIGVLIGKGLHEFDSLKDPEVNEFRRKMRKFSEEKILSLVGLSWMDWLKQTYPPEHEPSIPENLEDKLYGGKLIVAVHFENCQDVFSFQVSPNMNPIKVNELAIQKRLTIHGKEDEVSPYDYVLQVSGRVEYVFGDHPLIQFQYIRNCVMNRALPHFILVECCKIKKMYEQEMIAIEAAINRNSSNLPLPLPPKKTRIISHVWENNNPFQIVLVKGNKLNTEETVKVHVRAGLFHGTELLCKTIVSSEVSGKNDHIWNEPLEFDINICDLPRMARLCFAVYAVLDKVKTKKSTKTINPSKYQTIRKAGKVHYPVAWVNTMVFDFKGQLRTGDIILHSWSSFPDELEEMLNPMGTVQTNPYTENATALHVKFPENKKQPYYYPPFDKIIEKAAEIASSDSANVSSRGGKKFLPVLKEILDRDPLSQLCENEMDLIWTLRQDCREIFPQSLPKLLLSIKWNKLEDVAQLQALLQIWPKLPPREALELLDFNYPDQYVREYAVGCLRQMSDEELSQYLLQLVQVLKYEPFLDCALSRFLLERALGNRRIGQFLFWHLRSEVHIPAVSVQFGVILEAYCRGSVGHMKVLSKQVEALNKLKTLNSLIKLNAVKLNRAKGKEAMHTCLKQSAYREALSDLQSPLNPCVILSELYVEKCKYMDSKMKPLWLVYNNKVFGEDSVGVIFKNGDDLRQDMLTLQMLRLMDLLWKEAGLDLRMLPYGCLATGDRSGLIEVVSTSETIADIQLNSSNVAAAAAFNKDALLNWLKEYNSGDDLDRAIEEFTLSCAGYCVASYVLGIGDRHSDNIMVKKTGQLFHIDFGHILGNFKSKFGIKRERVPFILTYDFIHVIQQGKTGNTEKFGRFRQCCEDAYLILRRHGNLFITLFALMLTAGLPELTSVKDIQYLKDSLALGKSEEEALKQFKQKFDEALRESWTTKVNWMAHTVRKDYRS
UniProt Q9HCP0, sequence (whole entry, looked up): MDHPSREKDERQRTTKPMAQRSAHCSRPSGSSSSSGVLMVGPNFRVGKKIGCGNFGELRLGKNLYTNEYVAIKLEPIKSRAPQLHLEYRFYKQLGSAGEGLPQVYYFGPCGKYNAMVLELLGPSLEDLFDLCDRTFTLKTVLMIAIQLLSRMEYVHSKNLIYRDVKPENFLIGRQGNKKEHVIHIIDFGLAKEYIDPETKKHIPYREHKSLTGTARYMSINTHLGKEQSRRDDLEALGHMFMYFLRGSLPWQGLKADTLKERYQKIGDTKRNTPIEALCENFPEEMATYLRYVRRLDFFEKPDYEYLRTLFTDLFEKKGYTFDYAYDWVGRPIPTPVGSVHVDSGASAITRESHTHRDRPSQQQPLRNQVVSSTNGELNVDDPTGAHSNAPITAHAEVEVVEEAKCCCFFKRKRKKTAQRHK

Sample 1
Target: Calcium/calmodulin-dependent protein kinase type II subunit alpha (CAMK2A, Homo sapiens, UniProt Q9UQM7)
UniProt Q9UQM7, sequence (whole entry, looked up): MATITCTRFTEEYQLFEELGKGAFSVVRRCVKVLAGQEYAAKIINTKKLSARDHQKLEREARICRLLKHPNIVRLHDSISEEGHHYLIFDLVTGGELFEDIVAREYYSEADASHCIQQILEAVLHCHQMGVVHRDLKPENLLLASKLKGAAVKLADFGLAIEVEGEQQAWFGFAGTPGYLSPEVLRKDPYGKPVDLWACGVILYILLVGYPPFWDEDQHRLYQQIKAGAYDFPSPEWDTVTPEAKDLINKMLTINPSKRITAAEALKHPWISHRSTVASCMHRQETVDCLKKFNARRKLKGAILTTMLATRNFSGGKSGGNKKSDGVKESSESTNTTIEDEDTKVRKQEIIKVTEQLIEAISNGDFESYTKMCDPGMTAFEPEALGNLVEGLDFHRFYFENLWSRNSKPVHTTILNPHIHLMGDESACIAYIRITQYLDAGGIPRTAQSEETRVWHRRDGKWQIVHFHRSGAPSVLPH
Read-out: enzyme activity
Action: inhibitor
Tested at: 10 µM
SMILES	inhibition [%]
C/C=C(/C)C(=O)O[C@H]1[C@H](OC(C)=O)[C@@]2(CO)C(CC1(C)C)C1=CCC3[C@@]4(C)CC[C@H](O[C@@H]5O[C@H](C(=O)O)[C@@H](O[C@@H]6O[C@H](CO)[C@@H](O)[C@H](O)[C@H]6O)[C@H](O)[C@H]5O[C@@H]5O[C@H](CO)[C@@H](O)[C@H](O)[C@H]5O)[C@](C)(CO)C4CC[C@@]3(C)[C@]1(C)C[C@H]2O (some centres unmarked)	-32
COC(=O)c1ccc(O)c(O)c1	53
COc1ccc2[nH]cc(CCO)c2c1	27
CC(CN(C)C)CN1c2ccccc2CCc2ccccc21 (centres unmarked)	-11
CN(C)CCOC(C)(c1ccccc1)c1ccccn1 (centres unmarked)	-5
[N-]=[N+]=N[C@]1(CO)O[C@@H](n2ccc(N)nc2=O)[C@@H](F)[C@@H]1O	-14
C[C@H]1O[C@@H](O[C@H]2CC[C@]3(C)[C@H]4C=C[C@]56OC[C@@]7(CCC(C)(C)C[C@H]75)[C@@H](O)C[C@@]6(C)[C@]4(C)CC[C@H]3C2(C)C)[C@H](O)[C@@H](O[C@@H]2O[C@H](CO)[C@@H](O)[C@H](O)[C@H]2O)[C@H]1O	-10
CC[C@@H]1/C=C(\C)C[C@H](C)C[C@H](OC)[C@H]2O[C@@](O)(C(=O)C(=O)N3CCCC[C@H]3C(=O)O[C@H](/C(C)=C/[C@@H]3CC[C@H](Cl)[C@H](OC)C3)[C@H](C)[C@@H](O)CC1=O)[C@H](C)C[C@@H]2OC	-5

Sample 2
Structure (SMILES): O=C1CCC(N2Cc3cc(C4CCN(Cc5ccccc5)CC4)ccc3C2=O)C(=O)N1 (centres unmarked)
Target: CRBN/Zinc finger protein Helios (Homo sapiens, UniProt Q96SW2+Q9UKS7)
UniProt Q96SW2, sequence (whole entry, looked up): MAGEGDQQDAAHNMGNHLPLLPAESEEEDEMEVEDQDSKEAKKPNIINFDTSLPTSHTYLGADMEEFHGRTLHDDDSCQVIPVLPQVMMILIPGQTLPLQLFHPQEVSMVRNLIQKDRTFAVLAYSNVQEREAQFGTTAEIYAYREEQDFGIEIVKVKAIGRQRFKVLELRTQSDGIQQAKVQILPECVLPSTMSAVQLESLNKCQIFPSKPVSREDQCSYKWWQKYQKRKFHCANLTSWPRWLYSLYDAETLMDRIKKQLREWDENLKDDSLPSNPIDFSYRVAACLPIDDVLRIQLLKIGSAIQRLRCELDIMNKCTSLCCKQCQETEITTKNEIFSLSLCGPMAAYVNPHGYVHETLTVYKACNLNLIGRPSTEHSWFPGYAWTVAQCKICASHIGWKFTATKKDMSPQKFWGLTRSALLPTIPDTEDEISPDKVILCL
UniProt Q9UKS7, sequence (whole entry, looked up): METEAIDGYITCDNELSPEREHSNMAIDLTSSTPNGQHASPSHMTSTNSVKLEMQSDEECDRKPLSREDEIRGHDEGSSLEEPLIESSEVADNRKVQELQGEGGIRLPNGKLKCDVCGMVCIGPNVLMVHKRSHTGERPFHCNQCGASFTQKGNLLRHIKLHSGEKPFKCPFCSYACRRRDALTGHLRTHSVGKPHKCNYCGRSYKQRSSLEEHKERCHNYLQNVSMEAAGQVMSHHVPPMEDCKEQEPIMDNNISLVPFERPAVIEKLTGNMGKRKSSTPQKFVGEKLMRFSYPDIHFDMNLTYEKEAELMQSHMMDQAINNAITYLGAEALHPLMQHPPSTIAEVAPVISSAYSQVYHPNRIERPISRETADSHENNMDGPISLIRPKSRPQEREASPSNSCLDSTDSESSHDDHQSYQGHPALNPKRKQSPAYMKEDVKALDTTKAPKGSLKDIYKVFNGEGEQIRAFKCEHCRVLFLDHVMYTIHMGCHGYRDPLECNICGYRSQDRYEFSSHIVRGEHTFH
Action: degrader
Cells: HEK293
technique	tested at	time	protein remaining
HiBiT	333.3 nM	6 h	35.8%
HiBiT	1000 nM	–	36.8%
HiBiT kinetics	111.1 nM	6 h	22.4%
HiBiT	111.1 nM	–	41.4%
HiBiT kinetics	111.1 nM	1 h	71.1%
HiBiT	0.1524 nM	–	95.1%
HiBiT kinetics	0.1524 nM	1 h	89.4%
HiBiT	333.3 nM	–	35.8%
HiBiT kinetics	0.4572 nM	0.5 h	100%
HiBiT	0.05081 nM	–	101%
HiBiT kinetics	0.05081 nM	6 h	89.5%
HiBiT kinetics	0.05081 nM	1 h	105%
HiBiT kinetics	1.372 nM	3 h	64%
HiBiT	12.35 nM	6 h	40.9%
HiBiT	1000 nM	6 h	36.8%
HiBiT kinetics	1.372 nM	0.5 h	108%
HiBiT	0.4572 nM	6 h	81.8%
HiBiT	0.1524 nM	6 h	95.1%
HiBiT	111.1 nM	6 h	41.4%

Sample 3
Target: Mitogen-activated protein kinase kinase kinase 9 (MAP3K9, Homo sapiens, UniProt P80192)
UniProt P80192, sequence (whole entry, looked up): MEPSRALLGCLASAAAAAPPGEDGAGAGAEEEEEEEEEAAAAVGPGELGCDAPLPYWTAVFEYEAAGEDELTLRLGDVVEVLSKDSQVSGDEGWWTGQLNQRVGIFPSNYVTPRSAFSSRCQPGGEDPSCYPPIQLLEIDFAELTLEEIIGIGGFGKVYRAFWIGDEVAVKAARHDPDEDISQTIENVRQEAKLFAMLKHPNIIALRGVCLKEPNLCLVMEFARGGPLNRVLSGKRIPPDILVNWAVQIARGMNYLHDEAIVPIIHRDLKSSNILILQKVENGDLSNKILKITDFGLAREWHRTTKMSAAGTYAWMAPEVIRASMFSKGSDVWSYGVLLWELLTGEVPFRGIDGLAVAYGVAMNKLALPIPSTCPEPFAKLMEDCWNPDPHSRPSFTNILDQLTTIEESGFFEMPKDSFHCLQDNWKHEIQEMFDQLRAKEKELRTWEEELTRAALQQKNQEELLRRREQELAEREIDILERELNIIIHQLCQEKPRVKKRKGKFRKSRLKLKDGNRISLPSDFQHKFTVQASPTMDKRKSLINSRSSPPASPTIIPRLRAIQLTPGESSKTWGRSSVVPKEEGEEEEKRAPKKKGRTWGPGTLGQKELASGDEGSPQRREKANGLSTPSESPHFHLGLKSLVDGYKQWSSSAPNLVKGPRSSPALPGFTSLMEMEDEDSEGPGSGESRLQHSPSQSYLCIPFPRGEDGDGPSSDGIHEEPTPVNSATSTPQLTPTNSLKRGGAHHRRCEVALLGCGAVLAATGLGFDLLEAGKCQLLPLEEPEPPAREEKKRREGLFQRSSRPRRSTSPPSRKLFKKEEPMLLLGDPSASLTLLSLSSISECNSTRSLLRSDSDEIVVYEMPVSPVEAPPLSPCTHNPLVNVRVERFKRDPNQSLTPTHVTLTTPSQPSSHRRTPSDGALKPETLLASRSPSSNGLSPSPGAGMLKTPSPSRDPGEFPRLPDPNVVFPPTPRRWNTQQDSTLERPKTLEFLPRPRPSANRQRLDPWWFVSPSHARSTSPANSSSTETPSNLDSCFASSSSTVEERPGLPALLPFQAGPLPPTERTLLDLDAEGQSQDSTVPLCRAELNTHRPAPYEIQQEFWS
Read-out: enzyme activity
Action: inhibitor
Tested at: 0.5 µM
Baseline: control
Structure (SMILES)	remaining activity [%]
O=C1Cc2c([nH]c3ccc([N+](=O)[O-])cc23)-c2ccccc2N1	10.5
CCCC(=O)Oc1ccc2[nH]c(C(=O)c3cc4ccccc4[nH]3)cc2c1	97.7
Fc1ccc(-c2nc3n(c2-c2ccncc2)CCS3)cc1	83.6
CC(C)(C)n1nc(Cc2cccc3ccccc23)c2c(N)ncnc21	103
CC(=O)c1ccc(N2CCOCC2)cc1O	112
Oc1ccc(Nc2nc(-c3ccc(Cl)cc3)cs2)cc1	80.9
O=S(=O)(NCCNC/C=C/c1ccc(Br)cc1)c1cccc2cnccc12	99.6
CC#CC(=O)Nc1cc2c(Nc3ccc(F)c(Cl)c3)ncnc2cn1	95.8
CSc1nc(-c2ccnc(N[C@@H](C)c3ccccc3)c2)c(-c2ccc(F)cc2)[nH]1 (racemic)	101
Nc1nc(Nc2ccc(S(N)(=O)=O)cc2)nn1C(=O)c1c(F)cccc1F	25.6
O=C1NC(=O)C(c2c[nH]c3ccccc23)=C1c1c[nH]c2ccccc12	55.4
CC[n+]1c(/C=C/N(C)c2ccccc2)n(-c2ccccc2)c2ccc(-c3nc4ccccc4s3)cc21	98.3
N#CC(=C(N)Sc1ccc(N)cc1)c1ccccc1C(F)(F)F	85.9
COc1ccc(S(=O)(=O)N(CCO)c2ccccc2CN(C)CC=Cc2ccc(Cl)cc2)cc1	102
COc1cc(Nc2c(C#N)cnc3cc(OCCCN4CCN(C)CC4)c(OC)cc23)c(Cl)cc1Cl	16.5
NC(=O)c1ccc(N(C(N)=O)c2c(F)cccc2F)nc1-c1ccc(F)cc1F	112
Cc1ccc(NC2=CC(=O)c3sc(C)nc3C2=O)cc1	86.7
Nc1nccc(-c2c(-c3ccc(F)cc3)ncn2C2CCNCC2)n1	94.5
Nc1ncnc2c1cnn2-c1ccccc1	106
Cc1cncc2cccc(S(=O)(=O)N3CCCN(C(=O)CN)C[C@@H]3C)c12	94.4
Cc1cc(Nc2nc(-c3ccccc3)nc3ccccc23)n[nH]1	14.8
CCc1[nH]c(-c2ccc(OC)cc2)nc1-c1ccncc1	88.1

Sample 4
Structure (SMILES): N#Cc1ccc(Nc2ccc3[nH]c(=O)[nH]c3c2)c(Cl)c1
Technique: competition with immobilised ligand
Tested at: 1 µM
target	read-out	remaining binding
LIM domain kinase 1 (LIMK1, Homo sapiens, UniProt P53667)	cell-free assay	100%
Protein-tyrosine kinase 6 (PTK6, Homo sapiens, UniProt Q13882)	cell-free assay	100%
Serine/threonine-protein kinase 38-like (STK38L, Homo sapiens, UniProt Q9Y2H1)	binding	53%
Casein kinase II subunit alpha (CSNK2A1, Homo sapiens, UniProt P68400)	cell-free assay	80%
Ribosomal protein S6 kinase alpha-5, C-terminal kinase domain (RPS6KA5, Homo sapiens, UniProt O75582)	cell-free assay	100%
Focal adhesion kinase 1 (PTK2, Homo sapiens, UniProt Q05397)	cell-free assay	100%
Phosphatidylinositol 4,5-bisphosphate 3-kinase catalytic subunit beta isoform (PIK3CB, Homo sapiens, UniProt P42338)	cell-free assay	100%
Tyrosine-protein kinase Fes/Fps (FES, Homo sapiens, UniProt P07332)	cell-free assay	100%
Phosphatidylinositol 4-phosphate 5-kinase type-1 alpha (PIP5K1A, Homo sapiens, UniProt Q99755)	cell-free assay	100%
Serine/threonine-protein kinase B-raf (BRAF, Homo sapiens, UniProt P15056, V600E)	cell-free assay	100%
Mitogen-activated protein kinase 6 (MAPK6, Homo sapiens, UniProt Q16659)	cell-free assay	100%
Cyclin-dependent kinase 11B (CDK11B, Homo sapiens, UniProt P21127)	cell-free assay	100%
Serine/threonine-protein kinase Sgk1 (SGK1, Homo sapiens, UniProt O00141)	cell-free assay	100%
Serine/threonine-protein kinase MAK (MAK, Homo sapiens, UniProt P20794)	binding	100%
Macrophage colony-stimulating factor 1 receptor (CSF1R, Homo sapiens, UniProt P07333)	cell-free assay	97%
Serine/threonine-protein kinase PLK3 (PLK3, Homo sapiens, UniProt Q9H4B4)	cell-free assay	84%
cAMP-dependent protein kinase catalytic subunit beta (PRKACB, Homo sapiens, UniProt P22694)	cell-free assay	96%
Phosphatidylinositol 4-kinase beta (PI4KB, Homo sapiens, UniProt Q9UBF8)	cell-free assay	100%
Tyrosine-protein kinase SYK (SYK, Homo sapiens, UniProt P43405)	cell-free assay	100%
Casein kinase I isoform gamma-1 (CSNK1G1, Homo sapiens, UniProt Q9HCP0)	cell-free assay	100%
Mitogen-activated protein kinase kinase kinase 7 (MAP3K7, Homo sapiens, UniProt O43318)	cell-free assay	90%
Phosphatidylinositol 4,5-bisphosphate 3-kinase catalytic subunit alpha isoform (PIK3CA, Homo sapiens, UniProt P42336, H1047L)	cell-free assay	78%
Epidermal growth factor receptor (EGFR, Homo sapiens, UniProt P00533, G719C)	cell-free assay	100%
Megakaryocyte-associated tyrosine-protein kinase (MATK, Homo sapiens, UniProt P42679)	cell-free assay	100%
Serine/threonine-protein kinase 35 (STK35, Homo sapiens, UniProt Q8TDR2)	cell-free assay	100%

For quick reference, copied from above (sample 4):
target	read-out	remaining binding
Cyclin-dependent kinase 11B (CDK11B, Homo sapiens, UniProt P21127)	cell-free assay	100%
Phosphatidylinositol 4-phosphate 5-kinase type-1 alpha (PIP5K1A, Homo sapiens, UniProt Q99755)	cell-free assay	100%
Serine/threonine-protein kinase MAK (MAK, Homo sapiens, UniProt P20794)	binding	100%
Serine/threonine-protein kinase Sgk1 (SGK1, Homo sapiens, UniProt O00141)	cell-free assay	100%
Serine/threonine-protein kinase 35 (STK35, Homo sapiens, UniProt Q8TDR2)	cell-free assay	100%
Casein kinase II subunit alpha (CSNK2A1, Homo sapiens, UniProt P68400)	cell-free assay	80%
